Measurements pooled from the literature.
Parts stem from different laboratories: compare values within a part only.
Sequence of UniProt P10721 (whole entry, unmodified, looked up): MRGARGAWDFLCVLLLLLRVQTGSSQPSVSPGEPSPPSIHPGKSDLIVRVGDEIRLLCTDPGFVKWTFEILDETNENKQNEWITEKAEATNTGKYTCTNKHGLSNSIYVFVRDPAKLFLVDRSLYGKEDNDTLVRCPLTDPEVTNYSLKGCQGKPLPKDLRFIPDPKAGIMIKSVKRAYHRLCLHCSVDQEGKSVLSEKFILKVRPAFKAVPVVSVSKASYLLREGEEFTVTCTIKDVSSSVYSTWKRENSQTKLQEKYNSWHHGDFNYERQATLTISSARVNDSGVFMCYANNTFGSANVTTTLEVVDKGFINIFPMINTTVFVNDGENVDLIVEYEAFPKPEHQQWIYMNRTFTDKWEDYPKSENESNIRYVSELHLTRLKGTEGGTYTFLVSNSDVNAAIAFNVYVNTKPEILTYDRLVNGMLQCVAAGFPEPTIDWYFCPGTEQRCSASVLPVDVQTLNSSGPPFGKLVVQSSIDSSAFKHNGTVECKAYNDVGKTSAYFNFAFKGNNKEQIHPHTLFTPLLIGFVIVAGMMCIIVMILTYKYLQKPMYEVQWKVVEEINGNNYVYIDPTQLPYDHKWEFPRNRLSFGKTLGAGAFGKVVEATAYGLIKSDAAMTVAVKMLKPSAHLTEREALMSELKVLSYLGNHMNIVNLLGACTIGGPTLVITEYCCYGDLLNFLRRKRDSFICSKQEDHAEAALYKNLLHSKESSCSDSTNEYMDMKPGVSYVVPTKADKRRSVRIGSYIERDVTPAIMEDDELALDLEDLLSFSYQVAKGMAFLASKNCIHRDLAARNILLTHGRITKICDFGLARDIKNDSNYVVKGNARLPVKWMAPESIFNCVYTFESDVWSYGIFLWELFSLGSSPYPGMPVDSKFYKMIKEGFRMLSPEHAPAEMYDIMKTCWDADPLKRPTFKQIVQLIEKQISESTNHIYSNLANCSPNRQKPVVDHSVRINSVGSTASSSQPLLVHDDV
Sequence of UniProt Q9H2X6 (whole entry, looked up): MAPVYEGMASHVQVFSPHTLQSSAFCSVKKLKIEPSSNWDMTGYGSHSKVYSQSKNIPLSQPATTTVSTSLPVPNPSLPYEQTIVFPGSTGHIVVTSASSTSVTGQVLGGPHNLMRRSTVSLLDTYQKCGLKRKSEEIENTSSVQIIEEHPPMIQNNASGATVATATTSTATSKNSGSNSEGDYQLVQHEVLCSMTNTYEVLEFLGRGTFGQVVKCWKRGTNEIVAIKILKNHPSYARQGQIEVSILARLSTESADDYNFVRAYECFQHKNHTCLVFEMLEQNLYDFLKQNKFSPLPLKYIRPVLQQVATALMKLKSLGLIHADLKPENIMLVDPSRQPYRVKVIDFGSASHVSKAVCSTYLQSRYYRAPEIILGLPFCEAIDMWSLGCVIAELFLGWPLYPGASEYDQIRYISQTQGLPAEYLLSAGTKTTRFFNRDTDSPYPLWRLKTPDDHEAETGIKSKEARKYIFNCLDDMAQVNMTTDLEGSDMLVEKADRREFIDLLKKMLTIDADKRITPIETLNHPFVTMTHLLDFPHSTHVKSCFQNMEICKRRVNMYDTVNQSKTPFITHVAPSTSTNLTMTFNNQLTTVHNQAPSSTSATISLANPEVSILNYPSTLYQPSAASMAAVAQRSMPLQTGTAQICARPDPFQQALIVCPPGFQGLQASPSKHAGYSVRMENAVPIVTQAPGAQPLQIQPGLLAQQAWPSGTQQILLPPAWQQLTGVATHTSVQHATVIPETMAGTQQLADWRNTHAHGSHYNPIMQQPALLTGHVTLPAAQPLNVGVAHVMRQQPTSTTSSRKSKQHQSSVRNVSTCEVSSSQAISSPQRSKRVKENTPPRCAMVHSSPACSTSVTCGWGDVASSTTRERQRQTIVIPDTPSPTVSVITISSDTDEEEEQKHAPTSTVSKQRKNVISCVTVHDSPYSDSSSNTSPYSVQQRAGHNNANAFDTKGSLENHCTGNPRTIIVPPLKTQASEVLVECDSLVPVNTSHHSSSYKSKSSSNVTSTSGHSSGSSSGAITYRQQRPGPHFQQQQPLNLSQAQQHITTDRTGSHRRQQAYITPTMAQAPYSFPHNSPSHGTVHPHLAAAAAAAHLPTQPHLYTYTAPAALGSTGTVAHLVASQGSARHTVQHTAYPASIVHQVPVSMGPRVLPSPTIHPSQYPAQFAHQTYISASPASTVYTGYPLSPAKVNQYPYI
Sequence of UniProt Q00532 (whole entry, looked up): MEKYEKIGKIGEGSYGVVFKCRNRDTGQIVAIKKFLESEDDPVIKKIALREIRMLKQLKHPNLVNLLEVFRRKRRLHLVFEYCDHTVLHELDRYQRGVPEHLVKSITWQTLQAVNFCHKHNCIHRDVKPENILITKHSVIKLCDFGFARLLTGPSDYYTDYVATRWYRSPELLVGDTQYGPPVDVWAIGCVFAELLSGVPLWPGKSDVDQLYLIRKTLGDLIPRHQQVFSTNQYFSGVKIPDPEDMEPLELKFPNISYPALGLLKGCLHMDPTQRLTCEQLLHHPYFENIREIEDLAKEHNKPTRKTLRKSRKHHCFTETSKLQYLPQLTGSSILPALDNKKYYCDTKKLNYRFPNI
Sequence of UniProt Q9BYT3 (whole entry, looked up): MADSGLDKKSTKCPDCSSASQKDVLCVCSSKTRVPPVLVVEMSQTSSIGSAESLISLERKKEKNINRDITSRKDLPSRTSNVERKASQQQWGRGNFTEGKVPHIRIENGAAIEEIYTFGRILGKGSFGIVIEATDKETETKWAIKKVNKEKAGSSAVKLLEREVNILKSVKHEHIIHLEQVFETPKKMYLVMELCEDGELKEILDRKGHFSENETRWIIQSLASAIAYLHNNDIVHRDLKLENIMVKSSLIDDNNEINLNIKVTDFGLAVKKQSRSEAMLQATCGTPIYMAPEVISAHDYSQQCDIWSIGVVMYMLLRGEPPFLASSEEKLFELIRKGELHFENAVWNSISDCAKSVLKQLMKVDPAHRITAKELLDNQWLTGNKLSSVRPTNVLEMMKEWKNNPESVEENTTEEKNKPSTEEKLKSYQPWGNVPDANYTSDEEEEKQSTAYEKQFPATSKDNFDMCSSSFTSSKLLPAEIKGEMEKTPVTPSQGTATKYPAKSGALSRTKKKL
Sequence of UniProt P52564 (whole entry, looked up): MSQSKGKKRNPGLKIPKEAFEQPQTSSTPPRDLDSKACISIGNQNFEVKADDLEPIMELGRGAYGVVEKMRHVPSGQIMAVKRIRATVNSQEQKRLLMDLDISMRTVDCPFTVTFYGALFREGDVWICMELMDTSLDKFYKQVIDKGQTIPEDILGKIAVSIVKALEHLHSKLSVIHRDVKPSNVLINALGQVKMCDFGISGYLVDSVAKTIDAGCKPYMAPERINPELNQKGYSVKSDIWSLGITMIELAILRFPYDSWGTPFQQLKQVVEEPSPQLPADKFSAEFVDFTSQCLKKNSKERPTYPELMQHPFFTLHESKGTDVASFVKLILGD

Sample 1 — technique: competition with immobilised ligand; concentration: 1 µM; measurement: remaining binding
Structure (SMILES): CCCOc1ccc([C@H]2[C@H](C(=O)O)[C@@H](c3ccc4c(c3)OCO4)CN2CC(=O)Nc2c(CC)cccc2CC)cc1
Mast/stem cell growth factor receptor Kit (KIT, Homo sapiens, UniProt P10721, T670I/V559D); cell-free assay: 87%
Microtubule-associated serine/threonine-protein kinase 1 (MAST1, Homo sapiens, UniProt Q9Y2H9); cell-free assay: 93%
Interleukin-1 receptor-associated kinase 4 (IRAK4, Homo sapiens, UniProt Q9NWZ3); cell-free assay: 76%
Serine/threonine-protein kinase 33 (STK33, Homo sapiens, UniProt Q9BYT3); cell-free assay: 65%
Cyclin-dependent kinase-like 1 (CDKL1, Homo sapiens, UniProt Q00532); cell-free assay: 66%
Epidermal growth factor receptor (EGFR, Homo sapiens, UniProt P00533); cell-free assay: 100%
Tyrosine-protein kinase ABL1, non-phosphorylated (ABL1, Homo sapiens, UniProt P00519, F317I); binding: 76%
Ephrin type-A receptor 3 (EPHA3, Homo sapiens, UniProt P29320); cell-free assay: 86%
Tyrosine-protein kinase ABL1, phosphorylated (ABL1, Homo sapiens, UniProt P00519, F317L); cell-free assay: 68%
Death-associated protein kinase 2 (DAPK2, Homo sapiens, UniProt Q9UIK4); cell-free assay: 100%
Tyrosine-protein kinase ABL1, non-phosphorylated (ABL1, Homo sapiens, UniProt P00519, Q252H); cell-free assay: 61%
Tyrosine-protein kinase TXK (TXK, Homo sapiens, UniProt P42681); binding: 85%
Mitogen-activated protein kinase 3 (MAPK3, Homo sapiens, UniProt P27361); cell-free assay: 93%
Mast/stem cell growth factor receptor Kit (KIT, Homo sapiens, UniProt P10721, L576P); cell-free assay: 90%
Serine/threonine-protein kinase Nek11 (NEK11, Homo sapiens, UniProt Q8NG66); cell-free assay: 59%

Sample 2 — cell line: A-375; concentration: 100 µM; time: 36 h; measurement: viability
O=C1c2cccc3c2[C@H](CCC3)CN1[C@@H]1CN2CCC1CC2: 39.7%
Cc1ccc2c(Cl)cc(Cl)c(O)c2n1: 34.4%
COc1cc(/C=C/C(=O)O)ccc1O: 101%
CCCCC1(COC(=O)CCC(=O)O)C(=O)N(c2ccccc2)N(c2ccccc2)C1=O: 118%
CNC[C@@H](O)c1ccc(O)c(O)c1: 66.6%
CC1(C)S[C@@H]2[C@H](NC(=O)Cc3ccccc3)C(=O)N2[C@H]1C(=O)O: 100%
COc1ccc2c(c1)c(CC(=O)O)c(C)n2C(=O)c1ccc(Cl)cc1: 103%
Cc1ccc(C)c(OCCCC(C)(C)C(=O)O)c1: 102%
Clc1ccc(C(Cn2ccnc2)OCc2csc3c(Cl)cccc23)c(Cl)c1 (stereo not drawn): 1.41%
CCOc1nc2cccc(C(=O)O)c2n1Cc1ccc(-c2ccccc2-c2noc(=O)[nH]2)cc1: 95.7%
CN1CCN2c3ncccc3Cc3ccccc3C2C1 (stereo not drawn): 108%
C[C@H]1[C@H](C)CC[C@]2(C(=O)O)CC[C@]3(C)C(=CC[C@@H]4[C@@]5(C)C[C@@H](O)[C@H](O)[C@@](C)(CO)[C@@H]5CC[C@]43C)[C@H]12: 0.335%
CNNCc1ccc(C(=O)NC(C)C)cc1: 105%
O=C(O)CCC(=O)Nc1ccc(S(=O)(=O)Nc2nccs2)cc1: 117%
CC[C@H]1[C@@H](O)[C@@H]2[C@H](CC[C@]3(C)[C@@H]([C@H](C)CCC(=O)O)CC[C@@H]23)[C@@]2(C)CC[C@@H](O)C[C@@H]12: 39.8%
O=C(O)CC(O)(CC(=O)O)C(=O)O: 111%
Cn1c(=O)c2[nH]c(Br)nc2n(C)c1=O: 95%
CC[C@H](C)C(=O)O[C@H]1CCC=C2C=C[C@H](C)[C@H](CC[C@@H]3C[C@@H](O)CC(=O)O3)[C@H]21: 2.85%
O=C1CN(/N=C/c2ccc([N+](=O)[O-])o2)C(=O)N1: 21.7%

Sample 3 — effect on: enzyme activity; mode: inhibitor; concentration: 0.5 µM; reference: control; measurement: remaining activity
Target: Rho-associated protein kinase 2 (ROCK2, Homo sapiens, UniProt O75116)
Sequence of UniProt O75116 (whole entry, looked up): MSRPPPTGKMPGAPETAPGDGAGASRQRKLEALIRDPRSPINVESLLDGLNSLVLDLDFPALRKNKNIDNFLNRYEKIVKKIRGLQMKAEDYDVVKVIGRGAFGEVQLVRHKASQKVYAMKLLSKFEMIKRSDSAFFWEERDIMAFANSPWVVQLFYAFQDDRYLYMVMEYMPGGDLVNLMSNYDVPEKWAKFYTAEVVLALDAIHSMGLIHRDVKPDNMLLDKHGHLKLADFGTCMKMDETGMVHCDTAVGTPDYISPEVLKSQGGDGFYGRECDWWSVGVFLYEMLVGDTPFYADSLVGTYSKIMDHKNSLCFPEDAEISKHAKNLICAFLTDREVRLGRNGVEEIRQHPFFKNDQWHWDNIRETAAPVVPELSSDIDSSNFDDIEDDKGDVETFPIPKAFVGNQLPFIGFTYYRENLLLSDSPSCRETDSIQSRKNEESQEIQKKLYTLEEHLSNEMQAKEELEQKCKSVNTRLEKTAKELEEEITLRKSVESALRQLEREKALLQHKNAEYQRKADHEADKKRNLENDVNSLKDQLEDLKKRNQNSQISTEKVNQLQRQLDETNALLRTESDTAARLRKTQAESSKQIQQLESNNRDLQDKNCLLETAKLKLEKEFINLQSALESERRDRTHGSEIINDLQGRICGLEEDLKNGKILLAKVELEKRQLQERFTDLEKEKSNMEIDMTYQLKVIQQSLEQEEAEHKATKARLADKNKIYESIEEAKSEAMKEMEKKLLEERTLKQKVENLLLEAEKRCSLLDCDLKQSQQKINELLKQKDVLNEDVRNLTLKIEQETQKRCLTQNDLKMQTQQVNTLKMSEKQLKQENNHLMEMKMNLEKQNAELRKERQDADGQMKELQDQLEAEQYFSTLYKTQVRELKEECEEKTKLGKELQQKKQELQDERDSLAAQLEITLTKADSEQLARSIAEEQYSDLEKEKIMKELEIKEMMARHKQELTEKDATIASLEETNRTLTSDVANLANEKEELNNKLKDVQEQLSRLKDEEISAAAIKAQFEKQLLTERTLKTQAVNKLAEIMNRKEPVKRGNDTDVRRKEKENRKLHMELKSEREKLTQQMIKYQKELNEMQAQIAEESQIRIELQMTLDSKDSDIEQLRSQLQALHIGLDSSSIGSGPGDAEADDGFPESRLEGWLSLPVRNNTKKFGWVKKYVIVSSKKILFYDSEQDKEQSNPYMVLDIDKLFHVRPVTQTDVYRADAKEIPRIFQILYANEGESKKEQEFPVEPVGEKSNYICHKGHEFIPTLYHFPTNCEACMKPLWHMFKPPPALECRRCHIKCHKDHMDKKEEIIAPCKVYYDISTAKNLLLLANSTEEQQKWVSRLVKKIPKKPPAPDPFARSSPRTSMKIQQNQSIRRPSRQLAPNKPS
N#CC(=C(N)Sc1ccc(N)cc1)c1ccccc1C(F)(F)F: 100%
CC[n+]1c(/C=C/N(C)c2ccccc2)n(-c2ccccc2)c2ccc(-c3nc4ccccc4s3)cc21: 99.1%
CCCC(=O)Oc1ccc2[nH]c(C(=O)c3cc4ccccc4[nH]3)cc2c1: 103%
Oc1ccc(Nc2nc(-c3ccc(Cl)cc3)cs2)cc1: 99.4%
Cc1cncc2cccc(S(=O)(=O)N3CCCN(C(=O)CN)C[C@@H]3C)c12: 3.22%
O=C1Cc2c([nH]c3ccc([N+](=O)[O-])cc23)-c2ccccc2N1: 82%
Fc1ccc(-c2nc3n(c2-c2ccncc2)CCS3)cc1: 99.1%
Nc1nc(Nc2ccc(S(N)(=O)=O)cc2)nn1C(=O)c1c(F)cccc1F: 18.6%
CC(=O)c1ccc(N2CCOCC2)cc1O: 94.7%
CSc1nc(-c2ccnc(N[C@@H](C)c3ccccc3)c2)c(-c2ccc(F)cc2)[nH]1 (racemic): 95.3%
Nc1nccc(-c2c(-c3ccc(F)cc3)ncn2C2CCNCC2)n1: 102%
NC(=O)c1ccc(N(C(N)=O)c2c(F)cccc2F)nc1-c1ccc(F)cc1F: 97.7%
Cc1ccc(NC2=CC(=O)c3sc(C)nc3C2=O)cc1: 85.1%
CC#CC(=O)Nc1cc2c(Nc3ccc(F)c(Cl)c3)ncnc2cn1: 98.7%
Cc1cc(Nc2nc(-c3ccccc3)nc3ccccc23)n[nH]1: 87.6%
CC(C)(C)n1nc(Cc2cccc3ccccc23)c2c(N)ncnc21: 95.6%
Nc1ncnc2c1cnn2-c1ccccc1: 83.2%
COc1ccc(S(=O)(=O)N(CCO)c2ccccc2CN(C)CC=Cc2ccc(Cl)cc2)cc1: 94.6%
COc1cc(Nc2c(C#N)cnc3cc(OCCCN4CCN(C)CC4)c(OC)cc23)c(Cl)cc1Cl: 85%

Sample 4 — effect on: kinase activity; mode: inhibitor; concentration: 1 µM; measurement: remaining activity
Compound: CC(C)S(=O)(=O)c1ccc2nccc(Nc3ccc4sc(C5CCCC5)nc4c3)c2c1.Cl
Dual specificity mitogen-activated protein kinase kinase 6 (MAP2K6, Homo sapiens, UniProt P52564): 88%
Activin receptor type-1B (ACVR1B, Homo sapiens, UniProt P36896): 91%
Serine/threonine-protein kinase PLK2 (PLK2, Homo sapiens, UniProt Q9NYY3): 109%
Activin receptor type-1-like (ACVRL1, Homo sapiens, UniProt P37023): 95%
Cytoplasmic tyrosine-protein kinase BMX (BMX, Homo sapiens, UniProt P51813): 80%
NUAK family SNF1-like kinase 1 (NUAK1, Homo sapiens, UniProt O60285): 113%
MAP kinase-activated protein kinase 3 (MAPKAPK3, Homo sapiens, UniProt Q16644): 87%
Tyrosine-protein kinase ITK/TSK (ITK, Homo sapiens, UniProt Q08881): 91%
Ribosomal protein S6 kinase alpha-5 (RPS6KA5, Homo sapiens, UniProt O75582): 96%
Tribbles homolog 2 (TRIB2, Homo sapiens, UniProt Q92519): 93%
Ribosomal protein S6 kinase alpha-1 (RPS6KA1, Homo sapiens, UniProt Q15418): 95%
LIM domain kinase 2 (LIMK2, Homo sapiens, UniProt P53671): 83%
Ribosomal protein S6 kinase beta-1 (RPS6KB1, Homo sapiens, UniProt P23443): 109%
LIM domain kinase 1 (LIMK1, Homo sapiens, UniProt P53667): 83%
Homeodomain-interacting protein kinase 2 (HIPK2, Homo sapiens, UniProt Q9H2X6): 98%
Muscle, skeletal receptor tyrosine-protein kinase (MUSK, Homo sapiens, UniProt O15146): 103%
